Assay results gathered from unrelated publications.
Protocols differ between the studies behind these lines. Numbers after ± are the reported error.
PTPN3: Tyrosine-protein phosphatase non-receptor type 3 (PTPN3, Homo sapiens, UniProt P26045)
OPRL1: Nociceptin receptor (OPRL1, Homo sapiens, UniProt P41146)
Secreted effector protein C403A/D356A: Secreted effector protein (Yersinia pestis, UniProt O68720, C403A/D356A)
rep nsp14 with nsp10: Replicase polyprotein 1ab, nsp14 with nsp10 (rep, Severe acute respiratory syndrome coronavirus 2, UniProt P0DTD1)

Chains of the proteins cited; added tags and fusions are not shown. A line that says so, or that is headed by a name, gives the form on record, which may keep a tag or linker. Residues count along the entry.
UniProt P26045, 646-901 limits assumed: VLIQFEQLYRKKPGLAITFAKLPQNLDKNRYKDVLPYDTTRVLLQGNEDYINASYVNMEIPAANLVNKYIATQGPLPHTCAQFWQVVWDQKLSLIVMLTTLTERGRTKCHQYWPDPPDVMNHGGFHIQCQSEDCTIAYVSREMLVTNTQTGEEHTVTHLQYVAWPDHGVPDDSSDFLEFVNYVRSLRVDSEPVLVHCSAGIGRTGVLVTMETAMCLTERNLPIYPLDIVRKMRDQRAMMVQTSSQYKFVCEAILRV
UniProt P41146, whole entry: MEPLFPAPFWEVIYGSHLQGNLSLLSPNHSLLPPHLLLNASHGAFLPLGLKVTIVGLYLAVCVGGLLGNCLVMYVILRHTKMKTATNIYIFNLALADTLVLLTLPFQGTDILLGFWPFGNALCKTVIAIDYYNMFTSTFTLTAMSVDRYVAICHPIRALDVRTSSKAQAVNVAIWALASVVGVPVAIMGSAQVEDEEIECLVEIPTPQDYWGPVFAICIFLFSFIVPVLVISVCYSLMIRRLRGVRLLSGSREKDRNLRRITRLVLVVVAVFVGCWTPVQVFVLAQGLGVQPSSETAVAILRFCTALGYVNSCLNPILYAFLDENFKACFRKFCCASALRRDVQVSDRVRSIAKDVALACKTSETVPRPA
UniProt Q9Y6W6, 321-464 limits assumed: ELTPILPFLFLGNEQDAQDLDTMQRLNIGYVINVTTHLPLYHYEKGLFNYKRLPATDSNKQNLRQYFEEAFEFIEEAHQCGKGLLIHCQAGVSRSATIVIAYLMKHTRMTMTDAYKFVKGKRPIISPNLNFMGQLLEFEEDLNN
UniProt Q8WSF8, 18-236 limits assumed: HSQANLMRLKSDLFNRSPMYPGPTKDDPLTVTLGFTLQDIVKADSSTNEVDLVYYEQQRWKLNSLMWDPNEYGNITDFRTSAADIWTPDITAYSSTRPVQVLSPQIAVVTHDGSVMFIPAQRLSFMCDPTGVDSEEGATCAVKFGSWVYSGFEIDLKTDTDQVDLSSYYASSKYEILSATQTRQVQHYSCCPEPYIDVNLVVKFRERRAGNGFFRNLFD
UniProt P04775, whole entry: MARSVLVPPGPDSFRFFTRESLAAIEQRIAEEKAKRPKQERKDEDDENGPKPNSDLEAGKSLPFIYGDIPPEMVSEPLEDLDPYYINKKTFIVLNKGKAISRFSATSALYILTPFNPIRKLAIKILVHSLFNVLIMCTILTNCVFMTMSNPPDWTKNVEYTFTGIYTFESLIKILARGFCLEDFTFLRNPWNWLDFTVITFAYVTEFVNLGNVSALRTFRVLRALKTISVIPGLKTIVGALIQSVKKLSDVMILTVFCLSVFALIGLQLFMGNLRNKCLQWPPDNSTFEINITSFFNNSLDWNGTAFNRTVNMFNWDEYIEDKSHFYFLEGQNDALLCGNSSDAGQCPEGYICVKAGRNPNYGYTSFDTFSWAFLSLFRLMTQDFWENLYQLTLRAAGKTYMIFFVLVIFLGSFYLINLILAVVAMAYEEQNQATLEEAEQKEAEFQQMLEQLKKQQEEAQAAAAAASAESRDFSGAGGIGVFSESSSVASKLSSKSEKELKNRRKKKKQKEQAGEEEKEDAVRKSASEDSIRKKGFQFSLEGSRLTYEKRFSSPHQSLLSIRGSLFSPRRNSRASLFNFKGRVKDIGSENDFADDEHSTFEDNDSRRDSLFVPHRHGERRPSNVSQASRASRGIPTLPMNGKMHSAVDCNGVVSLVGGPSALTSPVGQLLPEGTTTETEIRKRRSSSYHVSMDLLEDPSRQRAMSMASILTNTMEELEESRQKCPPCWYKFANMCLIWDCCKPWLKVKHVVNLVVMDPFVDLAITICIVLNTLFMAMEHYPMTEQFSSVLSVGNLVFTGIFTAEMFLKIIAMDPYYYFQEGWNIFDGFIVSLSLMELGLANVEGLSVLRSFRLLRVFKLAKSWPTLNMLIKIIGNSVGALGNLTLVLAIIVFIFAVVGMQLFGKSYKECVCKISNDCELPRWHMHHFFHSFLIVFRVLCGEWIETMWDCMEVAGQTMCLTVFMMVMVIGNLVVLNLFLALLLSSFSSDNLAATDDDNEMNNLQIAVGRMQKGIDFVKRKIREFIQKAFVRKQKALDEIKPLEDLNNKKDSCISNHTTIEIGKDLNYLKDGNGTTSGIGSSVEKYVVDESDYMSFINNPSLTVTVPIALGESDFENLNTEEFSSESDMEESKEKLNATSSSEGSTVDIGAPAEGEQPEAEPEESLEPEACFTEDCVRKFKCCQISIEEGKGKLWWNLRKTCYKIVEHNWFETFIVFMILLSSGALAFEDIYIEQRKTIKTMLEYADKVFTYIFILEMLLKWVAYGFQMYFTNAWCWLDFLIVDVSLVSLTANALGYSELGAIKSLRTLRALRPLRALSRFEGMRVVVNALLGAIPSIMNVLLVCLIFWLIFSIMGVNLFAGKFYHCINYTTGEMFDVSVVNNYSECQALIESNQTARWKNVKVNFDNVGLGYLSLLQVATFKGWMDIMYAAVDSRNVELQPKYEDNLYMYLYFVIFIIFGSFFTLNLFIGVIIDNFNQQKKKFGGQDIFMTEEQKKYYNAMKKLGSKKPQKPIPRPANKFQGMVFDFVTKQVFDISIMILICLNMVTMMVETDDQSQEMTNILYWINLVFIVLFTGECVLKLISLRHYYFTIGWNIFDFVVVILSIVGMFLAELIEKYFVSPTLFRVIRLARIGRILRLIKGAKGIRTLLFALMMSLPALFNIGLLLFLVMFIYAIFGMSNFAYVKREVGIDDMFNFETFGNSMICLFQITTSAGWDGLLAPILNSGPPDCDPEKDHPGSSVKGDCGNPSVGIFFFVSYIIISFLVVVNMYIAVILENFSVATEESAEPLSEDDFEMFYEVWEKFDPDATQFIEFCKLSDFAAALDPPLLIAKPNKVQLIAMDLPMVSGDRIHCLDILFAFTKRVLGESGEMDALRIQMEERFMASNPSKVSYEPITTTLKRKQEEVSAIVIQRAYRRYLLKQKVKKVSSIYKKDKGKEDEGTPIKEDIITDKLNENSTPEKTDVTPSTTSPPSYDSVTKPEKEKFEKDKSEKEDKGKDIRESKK
UniProt O42275, whole entry, looked up: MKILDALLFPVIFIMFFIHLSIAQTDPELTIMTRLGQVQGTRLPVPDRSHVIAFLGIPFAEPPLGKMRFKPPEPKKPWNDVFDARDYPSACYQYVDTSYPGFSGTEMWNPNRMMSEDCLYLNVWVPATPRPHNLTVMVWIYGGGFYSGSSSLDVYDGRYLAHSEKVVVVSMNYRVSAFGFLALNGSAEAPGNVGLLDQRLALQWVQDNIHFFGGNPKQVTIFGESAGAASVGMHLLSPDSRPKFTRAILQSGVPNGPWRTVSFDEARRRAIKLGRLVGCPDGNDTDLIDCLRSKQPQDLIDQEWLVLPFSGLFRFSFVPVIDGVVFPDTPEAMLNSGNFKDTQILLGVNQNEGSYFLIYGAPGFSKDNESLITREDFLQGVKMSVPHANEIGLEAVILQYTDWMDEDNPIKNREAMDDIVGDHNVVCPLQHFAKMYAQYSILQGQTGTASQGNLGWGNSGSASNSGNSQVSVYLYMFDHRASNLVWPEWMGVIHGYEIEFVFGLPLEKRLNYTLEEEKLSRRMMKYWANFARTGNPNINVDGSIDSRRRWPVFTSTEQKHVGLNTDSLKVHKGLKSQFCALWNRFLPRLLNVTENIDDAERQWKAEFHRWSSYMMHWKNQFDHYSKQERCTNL
UniProt P08510, 1-655 with tags or gaps DEL6-46: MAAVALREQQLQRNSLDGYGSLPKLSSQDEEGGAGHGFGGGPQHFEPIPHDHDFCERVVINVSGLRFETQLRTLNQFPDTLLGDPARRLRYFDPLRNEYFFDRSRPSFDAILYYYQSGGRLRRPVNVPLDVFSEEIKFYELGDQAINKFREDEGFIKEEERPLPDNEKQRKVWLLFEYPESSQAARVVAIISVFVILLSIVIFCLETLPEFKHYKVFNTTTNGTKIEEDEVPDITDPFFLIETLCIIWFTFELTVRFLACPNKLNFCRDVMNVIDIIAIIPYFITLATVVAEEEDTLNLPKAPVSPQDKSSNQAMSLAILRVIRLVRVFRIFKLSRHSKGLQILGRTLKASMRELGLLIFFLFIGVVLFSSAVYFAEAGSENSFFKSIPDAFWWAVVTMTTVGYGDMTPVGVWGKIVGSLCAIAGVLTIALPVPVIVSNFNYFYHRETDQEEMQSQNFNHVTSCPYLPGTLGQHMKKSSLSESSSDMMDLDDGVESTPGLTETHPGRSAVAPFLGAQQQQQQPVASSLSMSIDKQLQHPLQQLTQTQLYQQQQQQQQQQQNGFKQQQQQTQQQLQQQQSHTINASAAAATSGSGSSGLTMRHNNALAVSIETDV
UniProt P62873, whole entry partner: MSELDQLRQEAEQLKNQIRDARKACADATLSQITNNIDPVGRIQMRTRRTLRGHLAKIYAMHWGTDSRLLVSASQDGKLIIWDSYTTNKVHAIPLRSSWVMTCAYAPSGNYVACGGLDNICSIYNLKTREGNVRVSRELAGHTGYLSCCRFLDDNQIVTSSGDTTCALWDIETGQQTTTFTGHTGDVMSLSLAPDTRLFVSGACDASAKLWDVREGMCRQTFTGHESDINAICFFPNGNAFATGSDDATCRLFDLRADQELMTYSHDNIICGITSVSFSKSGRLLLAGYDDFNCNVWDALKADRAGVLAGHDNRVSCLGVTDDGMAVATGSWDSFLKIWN
UniProt P32121, whole entry partner: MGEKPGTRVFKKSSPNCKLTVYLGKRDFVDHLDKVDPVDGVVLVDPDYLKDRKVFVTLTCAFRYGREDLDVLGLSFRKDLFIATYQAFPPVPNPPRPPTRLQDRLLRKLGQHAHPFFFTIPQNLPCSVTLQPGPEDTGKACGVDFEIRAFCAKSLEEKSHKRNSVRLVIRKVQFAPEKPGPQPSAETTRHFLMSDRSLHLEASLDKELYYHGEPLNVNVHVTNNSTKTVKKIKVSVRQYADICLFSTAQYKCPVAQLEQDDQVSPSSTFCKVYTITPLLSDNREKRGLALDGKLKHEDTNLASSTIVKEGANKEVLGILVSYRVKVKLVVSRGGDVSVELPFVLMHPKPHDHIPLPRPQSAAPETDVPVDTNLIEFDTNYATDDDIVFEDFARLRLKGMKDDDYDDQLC
UniProt P63096, 2-354 partner limits assumed: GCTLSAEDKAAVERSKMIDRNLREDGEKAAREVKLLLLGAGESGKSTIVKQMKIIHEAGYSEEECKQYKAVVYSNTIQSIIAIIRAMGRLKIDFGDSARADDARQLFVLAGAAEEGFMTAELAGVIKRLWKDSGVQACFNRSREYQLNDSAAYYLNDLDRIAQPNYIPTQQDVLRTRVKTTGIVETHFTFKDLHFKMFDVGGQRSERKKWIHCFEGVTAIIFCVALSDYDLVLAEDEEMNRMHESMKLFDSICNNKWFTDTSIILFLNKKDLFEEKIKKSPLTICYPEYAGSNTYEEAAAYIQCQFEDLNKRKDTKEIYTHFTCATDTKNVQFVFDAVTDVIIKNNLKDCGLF
UniProt P59768, 2-68 partner limits assumed: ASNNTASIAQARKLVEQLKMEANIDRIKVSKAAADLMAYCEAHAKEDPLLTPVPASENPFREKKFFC

The kcat/Km of `CC(=O)N[C@@H](Cc1c[nH]cn1)C(=O)N[C@H](C(=O)NCC(=O)N[C@@H](Cc1ccccc1)C(=O)N[C@@H](CC(C)C)C(=O)N[C@H](C(=O)N[C@@H](CCC(=O)O)C(=O)N[C@@H](Cc1cc(=O)oc2cc(OP(=O)(O)O)ccc12)C(=O)N[C@H](C(=O)N[C@@H](C)C(=O)N[C@H](C(=O)N[C@@H](CCCNC(=N)N)C(=O)N[C@@H](Cc1c[nH]c2ccccc12)C(N)=O)[C@@H](C)O)C(C)C)[C@@H](C)O)[C@@H](C)O` is reported as 10600 M⁻¹ s⁻¹ (Dual specificity protein phosphatase 10 (Homo sapiens, UniProt Q9Y6W6); substrate; pH 6, ERK1/2 activation-loop peptide).
`CC(C(=O)O)c1nn(C)c2nc(N)[nH]c(=O)c2c1=O` (stereo not shown): tracer binding “inhibited” (Dihydropteroate synthase (Bacillus anthracis, UniProt Q81VW8); competitor, fluorescence tracer displacement; concentration not given).
For `CC(=O)N[C@@H](Cc1c[nH]cn1)C(=O)N[C@@H](CC(=O)O)C(=O)NCC(=O)N[C@@H](CC(C)C)C(=O)N[C@@H](Cc1cc(=O)oc2cc(OP(=O)(O)O)ccc12)C(=O)N[C@@H](CCC(N)=O)C(=O)NCC(=O)N[C@@H](CC(C)C)C(=O)N[C@@H](CO)C(=O)N[C@H](C(=O)N[C@@H](C)C(=O)N[C@H](C(=O)N[C@@H](CCCCN)C(=O)N[C@@H](CC(=O)O)C(=O)N[C@H](C(=O)N[C@@H](Cc1ccc(OP(=O)(O)O)cc1)C(=O)N[C@@H](CC(=O)O)C(=O)N[C@@H](C)C(=O)N[C@@H](CC(C)C)C(=O)N[C@@H](Cc1c[nH]cn1)C(N)=O)[C@@H](C)O)[C@@H](C)O)[C@@H](C)O`, the kcat/Km was 22800 M⁻¹ s⁻¹ (PTPN3; substrate; pH 6, TCR zeta-chain ITAM peptide).
With `CC(C)[C@H]1CC[C@@H](N2CCC3(CC2)C(=O)NCN3c2ccccc2)CC1` the intrinsic activity was 0.99 (OPRL1; calcium mobilization; CHO with Gαqi5; concentration not given, unit not given; baseline: compound over N/OFQ Emax).
`O=C(/C=C/c1ccc(O)cc1)/C(C(=O)Nc1ccccc1)=C(O)/C=C/c1ccc(O)cc1` has an inhibition of 26 to 28% (Lethal factor (Bacillus anthracis, UniProt P15917); enzyme activity; 20 µM, added: substrate 3 µM).
`C=C1CCCC2=NC[C@H](C)[C@@H](C)C[C@@]23CCC(C(=O)O)=C[C@@H]3[C@@H]2O[C@]3(C[C@H]4CCC[C@@]5(CC[C@@]6(O[C@@H](CC[C@@]6(C)O)C1)O5)O4)C[C@@H](C)[C@@H](O)[C@H]2O3` gave a selectivity ratio of over 3400 fold (Soluble acetylcholine receptor (Aplysia californica, UniProt Q8WSF8); baseline: L-AChBP Kd over Soluble acetylcholine receptor Kd).
The block of `C[C@@H]1NC(=O)[C@H](CCCNC(=N)N)NC(=O)[C@H](CO)NC(=O)[C@H](Cc2c[nH]cn2)NC(=O)[C@H](CC(=O)O)NC(=O)[C@H](CCCNC(=N)N)NC(=O)[C@@H]2CSSC[C@H](N)C(=O)N[C@@H](C)C(=O)N[C@@H](CC(N)=O)C(=O)N[C@@H](CSSC[C@@H](C(N)=O)NC1=O)C(=O)N[C@@H](CO)C(=O)N[C@@H](CO)C(=O)N[C@@H](CCCCN)C(=O)N[C@@H](Cc1c[nH]c3ccccc13)C(=O)N2` is reported as 66 ± 4% (Scn2a (Rattus norvegicus, UniProt P04775); sodium current, blocker, two-electrode voltage clamp; Xenopus oocytes; 1 µM, 20 min, steady state).
For `O=C1Cc2ccccc2N1C1CCN([C@@H]2CC[C@H]3CCCc4cccc2c43)CC1`, “fold lower potency” read 90 fold (OPRL1; G protein interaction, BRET; HEK293 membranes; baseline: N/OFQ).
The kon of `O=P(O)(O)C(F)(F)c1cccc(-c2ccc(CO/N=C/c3ccoc3)cc2)c1` is reported as 104 M⁻¹ s⁻¹ (Secreted effector protein C403A/D356A; surface plasmon resonance; immobilized protein).
`Cc1ccc(S(=O)(=O)Nc2cccc(C(=O)NC3CCN(c4ncnc5[nH]cnc45)CC3)c2)cc1` gave an inhibition of 5.18% (Replicase polyprotein 1ab, nsp14 ExoN with nsp10 (rep, Severe acute respiratory syndrome coronavirus 2, UniProt P0DTD1); ExoN activity; 3.125 µM).
With `CS(=O)(=O)C=CCNC(=O)c1ccc2[nH]c(=O)n(C3CC3)c2c1` the kinact/KI was 110 ± 4 M⁻¹ s⁻¹ (Polyprotein P1234, nsP2 protease (Chikungunya virus, UniProt Q5XXP4); time-dependent inhibition).
With `O=C(O)C(O)=CC(=O)c1cc(Oc2ccccc2)cc(Oc2ccccc2)c1` the inhibition was 8% (rep nsp14 with nsp10; exonuclease activity, inhibitor; 20 µM).
`CC1=C[C@@H](CN2CCN(c3ncccn3)CC2)[C@H](C(C)C)C[C@H]1Cc1nnc(Cc2c[nH]c3ccccc23)o1` has a luciferase signal of 22.8% (Replicase polyprotein 1ab, nsp4-nsp5-nsp6 precursor (rep, Severe acute respiratory syndrome coronavirus 2, UniProt P0DTD1); reporter gene, cell-based primary screen).
`CC(=O)N[C@@H](Cc1c[nH]cn1)C(=O)N[C@@H](CC(=O)O)C(=O)NCC(=O)N[C@@H](CC(C)C)C(=O)N[C@@H](Cc1ccc(O)cc1)C(=O)N[C@@H](CCC(N)=O)C(=O)NCC(=O)N[C@@H](CC(C)C)C(=O)N[C@@H](CO)C(=O)N[C@H](C(=O)N[C@@H](C)C(=O)N[C@H](C(=O)N[C@@H](CCCCN)C(=O)N[C@@H](CC(=O)O)C(=O)N[C@H](C(=O)N[C@@H](Cc1cc(=O)oc2cc(OP(=O)(O)O)ccc12)C(=O)N[C@@H](CC(=O)O)C(=O)N[C@@H](C)C(=O)N[C@@H](CC(C)C)C(=O)N[C@@H](Cc1c[nH]cn1)C(N)=O)[C@@H](C)O)[C@@H](C)O)[C@@H](C)O` gave a kcat/Km of 57700 M⁻¹ s⁻¹ (PTPN3; substrate; pH 6, TCR zeta-chain ITAM peptide).
With `CC[C@H](C)[C@H](NC(=O)[C@H](CC(C)C)NC(=O)[C@H](Cc1ccc(OP(=O)(O)O)cc1)NC(=O)[C@H](CCC(=O)O)NC(=O)[C@H](CC(=O)O)NC(=O)[C@H](C)NC(=O)[C@H](CC(=O)O)NC(=O)[C@@H](NC(=O)[C@H](CC(C)C)NC(=O)CCCC[C@@H]1SC[C@@H]2NC(=O)N[C@@H]21)C(C)C)C(=O)N1CCC[C@H]1C(=O)N[C@@H](CCC(N)=O)C(=O)N[C@@H](CCC(N)=O)C(=O)NCC(=O)O` the kon was 16200 M⁻¹ s⁻¹ (Secreted effector protein C403A/D356A; surface plasmon resonance).
The Vmax of `CN(C)Cc1ccc(OC(=O)N(C)C)c(Cl)c1` is reported as 0.072 absorbance units/min (ache (Electrophorus electricus, UniProt O42275); enzyme activity, inhibitor, Ellman; 5.5 µM, added: acetylthiocholine iodide).
For `CNC(=O)CC1C(=O)N(C2CCN([C@H]3CC[C@@H](C(C)C)CC3)CC2)c2ccccc21` (stereo partly shown), the intrinsic activity was 0.77 ± 0.07 (OPRL1; β-arrestin recruitment, BRET; HEK293; concentration not given, unit not given, added: β-arrestin 2; baseline: N/OFQ maximal effect).
The inhibition of `O=C(O)C(O)=CC(=O)c1ccc(O)c(O)c1` is reported as 93% (rep nsp14 with nsp10; exonuclease activity, inhibitor; 20 µM).
The residence time of `CC[C@H](C)[C@@H]1NC(=O)[C@H](CCCNC(=N)N)NC(=O)[C@@H](N)CSSC[C@@H]2NC(=O)[C@@H]3CSSC[C@@H](C(=O)N[C@H](C(=O)O)C(C)C)NC(=O)[C@H](CCCCN)NC(=O)[C@H](CC(N)=O)NC(=O)[C@H](Cc4ccccc4)NC(=O)[C@H](CCCNC(=N)N)NC(=O)[C@H](CC(N)=O)NC(=O)[C@H](CSSC[C@H](NC(=O)[C@H](CCCCN)NC(=O)[C@H](CCC(N)=O)NC(=O)[C@H](CC(N)=O)NC(=O)[C@@H]4C[C@@H](O)CN4C1=O)C(=O)N[C@@H](Cc1ccccc1)C(=O)N[C@@H](CCC(N)=O)C(=O)N[C@@H](Cc1c[nH]cn1)C(=O)N[C@@H](CC(C)C)C(=O)N[C@@H](CC(=O)O)C(=O)N[C@@H](CC(=O)O)C(=O)N3)NC(=O)[C@H](CCCCN)NC(=O)[C@H](CCCNC(=N)N)NC(=O)[C@H](CO)NC2=O` is reported as about 150 ms (Sh (Drosophila melanogaster, UniProt P08510, del6-46); potassium current, patch clamp; concentration not given, -40 mV).

Excerpt of the above:
`CC(C(=O)O)c1nn(C)c2nc(N)[nH]c(=O)c2c1=O` (stereo not shown): tracer binding “inhibited” (Dihydropteroate synthase (Bacillus anthracis, UniProt Q81VW8); competitor, fluorescence tracer displacement; concentration not given).
With `CS(=O)(=O)C=CCNC(=O)c1ccc2[nH]c(=O)n(C3CC3)c2c1` the kinact/KI was 110 ± 4 M⁻¹ s⁻¹ (Polyprotein P1234, nsP2 protease (Chikungunya virus, UniProt Q5XXP4); time-dependent inhibition).
